Assay results gathered from unrelated publications.
Each line is one published result; not all experiments were run side by side. Numbers after ± are the reported error.

Compound	test	system	conditions	tissue uptake
CCCC[C@H]1C(=O)N(C)[C@@H](CCCC)C(=O)N[C@@H](CCCNC(=O)CN2CCN(CC(=O)O)CCN(CC(=O)O)CCN(CC(=O)O)CC2)C(=O)N[C@H](C(=O)NCC(N)=O)CSCC(=O)N[C@@H](Cc2ccc(O)cc2)C(=O)N(C)[C@@H](C)C(=O)N[C@@H](CC(N)=O)C(=O)N2CCC[C@H]2C(=O)N[C@@H](Cc2c[nH]cn2)C(=O)N[C@@H](CC(C)C)C(=O)N(C)CC(=O)N[C@@H](Cc2c[nH]c3ccccc23)C(=O)N[C@@H](CO)C(=O)N[C@@H](Cc2c[nH]c3ccccc23)C(=O)N1C [gallium-68 labelled]		NOD/SCID mice, CHO-hPD-L1 xenograft, intestine	60 min, atezolizumab 10 mg/kg pretreatment	2.87 ± 0.44 %ID/g
CSCC[C@H](NC(=O)CNC(=O)[C@H](CCCCN)NC(=O)[C@H](CC(C)C)NC(=O)[C@@H]1CCCN1C(=O)[C@H](CO)NC(=O)[C@H](Cc1c[nH]cn1)NC(=O)[C@H](Cc1c[nH]c2ccccc12)NC(=O)[C@H](CCCNC(=N)N)NC(=O)[C@H](CC(C)C)NC(=O)[C@H](CCCNC(=N)N)NC(=O)[C@H](Cc1c[nH]c2ccccc12)NC(=O)[C@H](CS)NC(=O)CCCCCNC(=O)CN1CCN(CC(=O)O)CCN(CC(=O)O)CCN(CC(=O)O)CC1)C(=O)O [copper-64 labelled]	ex vivo biodistribution	C57BL/6J mice bearing B16-F10 tumours, heart	intravenous, 1.85 MBq, 2 h	2.09 %ID/g
CC[C@H](C)[C@H](NC(=O)[C@H](CCCCN)NC(=O)CNC(=O)[C@H](CC(C)C)NC(=O)[C@H](Cc1ccccc1)NC(=O)[C@H](CCCCN)NC(=O)[C@H](CO)NC(=O)[C@H](Cc1ccccc1)NC(=O)[C@H](Cc1c[nH]c2ccccc12)NC(=O)[C@H](CCC(N)=O)NC(=O)[C@@H](NC(=O)[C@H](Cc1ccccc1)NC(=O)CCCCCNC(=O)CN1CCN(CC(=O)O)CCN(CC(=O)O)CCN(CC(=O)O)CC1)C(C)C)C(=O)N[C@@H](CCC(=O)O)C(=O)N1CCC[C@H]1C(=O)N[C@@H](CC(=O)O)C(=O)N[C@H](C(=O)N[C@@H](CO)C(=O)N[C@@H](CCC(N)=O)C(=O)N[C@H](C(=O)N[C@@H](CCC(N)=O)C(=O)N[C@@H](CC(=O)O)C(=O)N1CCC[C@H]1C(=O)N[C@@H](CC(N)=O)C(=O)N[C@@H](CC(=O)O)C(=O)N[C@@H](CCC(N)=O)C(=O)N[C@@H](Cc1ccc(O)cc1)C(=O)N[C@@H](CCC(=O)O)C(=O)N1CCC[C@H]1C(=O)N[C@@H](Cc1ccccc1)C(=O)O)C(C)C)C(C)C [copper-64 labelled]		C57BL/6 mice, stomach	together with: LPS 0.1 mg/kg intratracheal	2.39 ± 0.5 %ID/g
[2H]C([2H])([18F])[C@]([2H])(N)C(=O)O	PET	athymic nude mice, U-87 MG, muscle	dose not given, 30 min post-injection	1.1 ± 0.11 %ID/cc
C[C@H](O)[C@@H](NC(=O)[C@H]1CCCN1C(=O)[C@@H](CCCCN)NC(=O)[C@@H](CO)NC(=O)[C@@H](Cc1ccc(O)cc1)NC(=O)[C@@H](CC(N)=O)NC(=O)CCOCCOCCOCCNC(=O)CN1CCN(CC(=O)O)CCN(CC(=O)O)CCN(CC(=O)O)CC1)C(=O)N[C@H](CC(=O)O)C(=O)N[C@H](CCCNC(=N)N)C(=O)N[C@H](CCC(N)=O)C(=O)N[C@H](Cc1ccc(O)cc1)C(=O)N[C@H](Cc1c[nH]cn1)C(=O)N[C@H](Cc1ccccc1)C(N)=O [copper-64 labelled]		C57BL/6J mice, liver	intravenous, 1.85 MBq, 0.3333 h, radiolabelled	1.4 ± 0.19 %ID/g
CC[C@H](C)[C@H](NC(=O)[C@H](CCCNC(=N)N)NC(=O)[C@H](CCCCN)NC(=O)[C@H](Cc1ccc(O)cc1)NC(=O)[C@H](CC(=O)O)NC(=O)[C@H](C)NC(=O)CNC(=O)CCOCCOCCOCCNC(=O)CN1CCN(CC(=O)O)CCN(CC(=O)O)CCN(CC(=O)O)CC1)C(=O)N[C@H](C(=O)N[C@@H](CC(C)C)C(=O)N[C@@H](CCCCN)C(=O)N[C@H](C(=O)N[C@@H](CC(N)=O)C(N)=O)C(C)C)[C@@H](C)O [copper-64 labelled]	ex vivo gamma counting	C57BL/6J male mice, B16-F10 tumour, kidney	intravenous, 1.85 MBq, 5 min	22.8 ± 1.39 %ID/g
CC(C)C[C@@H](NC(=O)[C@@H](CCCNC(=N)N)NC(=O)[C@@H](Cc1c[nH]cn1)NC(=O)[C@@H](Cc1c[nH]c2ccccc12)NC(=O)[C@@H](Cc1c[nH]cn1)NC(=O)[C@@H](Cc1ccccc1)NC(=O)[C@H](NC(=O)[C@@H](Cc1ccc(O)cc1)NC(=O)CNC(=O)CNC(=O)CCOCCOCCOCCNC(=O)CN1CCN(CC(=O)O)CCN(CC(=O)O)CC1)[C@H](C)O)C(=O)N[C@H](CC(N)=O)C(=O)N1CCC[C@@H]1C(=O)O [gallium-68 labelled]	gamma counting	C57BL/6 mice, male, intestines	intravenous, 1.85 MBq, 120 min	1.19 ± 0.35 %ID/g
CC[C@H](C)[C@H](NC(=O)[C@@H](Cc1c[nH]c2ccccc12)NC(=O)[C@@H]1CCCN1C(=O)[C@H](CCCCN)NC(=O)[C@H](CCCCN)NC(=O)CCNC(=O)CCNC(=O)CN1CCN(CC(=O)O)CCN(CC(=O)O)CCN(CC(=O)O)CC1)C(=O)N[C@@H](C[Si](C)(C)C)C(=O)O [gallium-68 labelled]	ex vivo biodistribution	nude mice, HT-29 xenograft, salivary glands	90 min, together with: levocabastine 0.5 µmol	0.36 ± 0.1 %ID/g

Some of these lines once more:
Compound	test	system	conditions	tissue uptake
CC[C@H](C)[C@H](NC(=O)[C@H](CCCCN)NC(=O)CNC(=O)[C@H](CC(C)C)NC(=O)[C@H](Cc1ccccc1)NC(=O)[C@H](CCCCN)NC(=O)[C@H](CO)NC(=O)[C@H](Cc1ccccc1)NC(=O)[C@H](Cc1c[nH]c2ccccc12)NC(=O)[C@H](CCC(N)=O)NC(=O)[C@@H](NC(=O)[C@H](Cc1ccccc1)NC(=O)CCCCCNC(=O)CN1CCN(CC(=O)O)CCN(CC(=O)O)CCN(CC(=O)O)CC1)C(C)C)C(=O)N[C@@H](CCC(=O)O)C(=O)N1CCC[C@H]1C(=O)N[C@@H](CC(=O)O)C(=O)N[C@H](C(=O)N[C@@H](CO)C(=O)N[C@@H](CCC(N)=O)C(=O)N[C@H](C(=O)N[C@@H](CCC(N)=O)C(=O)N[C@@H](CC(=O)O)C(=O)N1CCC[C@H]1C(=O)N[C@@H](CC(N)=O)C(=O)N[C@@H](CC(=O)O)C(=O)N[C@@H](CCC(N)=O)C(=O)N[C@@H](Cc1ccc(O)cc1)C(=O)N[C@@H](CCC(=O)O)C(=O)N1CCC[C@H]1C(=O)N[C@@H](Cc1ccccc1)C(=O)O)C(C)C)C(C)C [copper-64 labelled]		C57BL/6 mice, stomach	together with: LPS 0.1 mg/kg intratracheal	2.39 ± 0.5 %ID/g
